# Measured values gathered from unrelated publications.
# Values joined by “and” are separate records of one study, mostly repeats; a detail may differ. Numbers after ± are the reported error.
# CDK5 with p25: Cyclin-dependent kinase 5, with p25 (CDK5, Homo sapiens, UniProt Q00535)
# Sequence of UniProt Q00535 (whole entry, looked up): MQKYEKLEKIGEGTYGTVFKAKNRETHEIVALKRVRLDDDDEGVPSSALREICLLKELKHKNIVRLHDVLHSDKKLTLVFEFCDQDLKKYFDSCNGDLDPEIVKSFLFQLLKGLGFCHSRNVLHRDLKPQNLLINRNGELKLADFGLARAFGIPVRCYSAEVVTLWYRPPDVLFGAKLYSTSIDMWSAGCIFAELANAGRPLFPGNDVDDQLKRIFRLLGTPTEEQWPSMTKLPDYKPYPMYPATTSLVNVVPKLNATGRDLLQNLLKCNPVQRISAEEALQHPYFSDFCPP
# B1: human GANAB; sequence looked up; chain ITLAVDRSNFKTCEESSFCKRQRSIRPGLSPYRALLDSLQLGPDSLTVHLIHEVTKVLLVLELQGLQKNMTRFRIDELEPRRPRYRVPDVLVADPPIARLSVSGRDENSVELTMAEGPYKIILTARPFRLDLLEDRSLLLSVNARGLLEFEHQRAPRVSQGSKDPAEGDGAQPEETPRDGDKPEETQGKAEKDEPGAWEETFKTHSDSKPYGPMSVGLDFSLPGMEHVYGIPEHADNLRLKVTEGGEPYRLYNLDVFQYELYNPMALYGSVPVLLAHNPHRDLGIFWLNAAETWVDISSNTAGKTLFGKMMDYLQGSGETPQTDVRWMSETGIIDVFLLLGPSISDVFRQYASLTGTQALPPLFSLGYHQSRWNYRDEADVLEVDQGFDDHNLPCDVIWLDIEHADGKRYFTWDPSRFPQPRTMLERLASKRRKLVAIVDPHIKVDSGYRVHEELRNLGLYVKTRDGSDYEGWCWPGSAGYPDFTNPTMRAWWANMFSYDNYEGSAPNLFVWNDMNEPSVFNGPEVTMLKDAQHYGGWEHRDVHNIYGLYVHMATADGLRQRSGGMERPFVLARAFFAGSQRFGAVWTGDNTAEWDHLKISIPMCLSLGLVGLSFCGADVGGFFKNPEPELLVRWYQMGAYQPFFRAHAHLDTGRREPWLLPSQHNDIIRDALGQRYSLLPFWYTLLYQAHREGIPVMRPLWVQYPQDVTTFNIDDQYLLGDALLVHPVSDSGAHGVQVYLPGQGEVWYDIQSYQKHHGPQTLYLPVTLSSIPVFQRGGTIVPRWMRVRRSSECMKDDPITLFVALSPQGTAQGELFLDDGHTFNYQTRQEFLLRRFSFSGNTLVSSSADPEGHFETPIWIERVVIIGAGKPAAVVLQTKGSPESRLSFQHDPETSVLVLRKPGINVASDWSIHLR
# B2: chain MSEILPYGEDKMGRFGADPEGSDLSFSCRLQDTNSFFAGNQAKRPPKLGQIGRAKRVVIEDDRIDDVLKGMGEKPPSGV
# Sequence of UniProt Q64663 (whole entry, unmodified, looked up): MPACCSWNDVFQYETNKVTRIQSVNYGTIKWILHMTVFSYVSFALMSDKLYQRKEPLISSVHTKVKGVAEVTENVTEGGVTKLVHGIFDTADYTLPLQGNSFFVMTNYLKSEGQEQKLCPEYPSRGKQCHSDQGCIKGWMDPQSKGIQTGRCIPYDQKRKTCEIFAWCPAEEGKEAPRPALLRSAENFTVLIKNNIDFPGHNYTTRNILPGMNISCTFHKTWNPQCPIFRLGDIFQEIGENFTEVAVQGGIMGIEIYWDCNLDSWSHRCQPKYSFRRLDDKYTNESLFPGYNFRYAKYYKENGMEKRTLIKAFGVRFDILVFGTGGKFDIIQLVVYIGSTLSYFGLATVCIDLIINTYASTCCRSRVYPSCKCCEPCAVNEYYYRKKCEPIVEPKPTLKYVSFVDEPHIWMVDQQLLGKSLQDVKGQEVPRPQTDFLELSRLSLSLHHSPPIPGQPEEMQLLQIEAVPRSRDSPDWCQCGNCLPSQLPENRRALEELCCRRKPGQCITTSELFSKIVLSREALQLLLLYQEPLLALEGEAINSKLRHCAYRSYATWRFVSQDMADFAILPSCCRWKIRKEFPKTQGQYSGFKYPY
# Sequence of UniProt Q9UQM7 (whole entry, unmodified, looked up): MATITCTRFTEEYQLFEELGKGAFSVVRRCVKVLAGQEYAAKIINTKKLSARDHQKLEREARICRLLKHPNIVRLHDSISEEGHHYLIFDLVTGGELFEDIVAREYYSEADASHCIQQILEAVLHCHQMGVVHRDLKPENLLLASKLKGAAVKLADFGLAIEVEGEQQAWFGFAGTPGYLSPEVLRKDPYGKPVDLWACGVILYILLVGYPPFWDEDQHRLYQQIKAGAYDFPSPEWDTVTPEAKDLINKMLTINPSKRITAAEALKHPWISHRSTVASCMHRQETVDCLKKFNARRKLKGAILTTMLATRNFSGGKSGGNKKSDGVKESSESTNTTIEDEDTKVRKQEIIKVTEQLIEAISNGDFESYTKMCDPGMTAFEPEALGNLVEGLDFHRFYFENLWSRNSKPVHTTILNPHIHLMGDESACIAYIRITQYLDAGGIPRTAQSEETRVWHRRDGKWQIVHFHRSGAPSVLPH
# Sequence of UniProt Q5ANA3 (whole entry, looked up): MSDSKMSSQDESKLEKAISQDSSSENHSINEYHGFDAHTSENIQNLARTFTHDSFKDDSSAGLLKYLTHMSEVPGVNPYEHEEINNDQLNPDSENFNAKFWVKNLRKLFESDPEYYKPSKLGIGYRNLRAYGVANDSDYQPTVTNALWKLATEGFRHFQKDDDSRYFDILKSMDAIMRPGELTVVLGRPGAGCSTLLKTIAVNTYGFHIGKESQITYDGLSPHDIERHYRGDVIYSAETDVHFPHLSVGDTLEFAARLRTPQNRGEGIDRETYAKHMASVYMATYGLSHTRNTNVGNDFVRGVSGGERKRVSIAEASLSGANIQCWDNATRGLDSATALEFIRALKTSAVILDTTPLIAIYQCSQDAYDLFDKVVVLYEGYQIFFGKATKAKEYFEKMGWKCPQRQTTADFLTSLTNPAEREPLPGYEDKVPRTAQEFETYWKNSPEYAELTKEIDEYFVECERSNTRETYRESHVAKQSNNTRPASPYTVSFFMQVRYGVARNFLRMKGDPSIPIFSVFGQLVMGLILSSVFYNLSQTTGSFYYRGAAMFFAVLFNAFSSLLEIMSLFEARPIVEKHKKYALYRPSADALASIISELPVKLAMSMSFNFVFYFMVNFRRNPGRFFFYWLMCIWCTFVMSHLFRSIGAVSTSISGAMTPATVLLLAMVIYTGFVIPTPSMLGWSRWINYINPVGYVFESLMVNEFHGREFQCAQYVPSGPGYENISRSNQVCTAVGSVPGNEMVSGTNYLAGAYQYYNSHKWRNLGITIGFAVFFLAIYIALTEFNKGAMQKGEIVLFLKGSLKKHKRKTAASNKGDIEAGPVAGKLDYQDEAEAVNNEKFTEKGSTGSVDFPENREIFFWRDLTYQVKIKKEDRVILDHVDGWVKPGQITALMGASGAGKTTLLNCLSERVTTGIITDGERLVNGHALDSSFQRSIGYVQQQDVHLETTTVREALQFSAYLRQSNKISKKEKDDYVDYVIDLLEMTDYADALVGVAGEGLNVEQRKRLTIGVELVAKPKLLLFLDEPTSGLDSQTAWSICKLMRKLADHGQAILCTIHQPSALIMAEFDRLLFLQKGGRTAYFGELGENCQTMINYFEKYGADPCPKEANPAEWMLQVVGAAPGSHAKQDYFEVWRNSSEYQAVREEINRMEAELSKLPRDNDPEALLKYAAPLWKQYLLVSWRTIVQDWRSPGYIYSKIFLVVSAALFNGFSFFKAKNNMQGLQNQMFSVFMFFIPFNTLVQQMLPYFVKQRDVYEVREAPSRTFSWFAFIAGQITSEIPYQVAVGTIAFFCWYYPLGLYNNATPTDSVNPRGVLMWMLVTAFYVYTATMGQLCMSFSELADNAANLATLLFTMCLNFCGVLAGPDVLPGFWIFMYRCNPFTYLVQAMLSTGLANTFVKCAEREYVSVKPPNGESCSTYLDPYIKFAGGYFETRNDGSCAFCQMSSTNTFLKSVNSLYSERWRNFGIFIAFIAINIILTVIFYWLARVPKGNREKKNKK
Substance,target or system,assay,test system,setting,how to read,measurement,value
human ME2 P78D,,"enzyme activity, NADH absorbance",,"without fumarate, added: L-malate varied",,Hill coefficient,1.53 ± 0.06
B1 (human GANAB),PP6C (human),"co-immunoprecipitation, IP-MS",CYB5R4 knockout cells,concentration not given,reference: CYB5R4 knockout over parental,log2 fold change,-0.42
milbemycin oxime,"CDR1 (Candida albicans, UniProt Q5ANA3)","binding, microscale thermophoresis",,1.22 nM,,fraction bound,-5.35%
KEAFWDRCLSVIQLMSSKMLQINA,CDK5 with p25,"phosphotransferase activity, radiometric",peptide,"concentration not given, 10% DMSO, added: histone substrate",reference: p5-WT peptide,activity change,27%
human ME2 K57S,,"enzyme activity, NADH absorbance",,"with fumarate 3 mM, added: L-malate varied",,Hill coefficient,1 ± 0.01
human eRF3a,PP6C (human),"co-immunoprecipitation, IP-MS",CYB5R4 knockout cells,concentration not given,reference: CYB5R4 knockout over parental,log2 fold change,0.09
B2,"CAMK2A (Homo sapiens, UniProt Q9UQM7, D135N)","binding, ITC",kinase domain D135N,added: AMPPNP,,−TΔS,-0.65 kcal/mol and -0.473 kcal/mol
Malic enzyme 2 S121Q (human),,"enzyme activity, NADH absorbance",,"with fumarate 3 mM, added: L-malate varied",,Hill coefficient,1.02 ± 0.03
REAFWDRCLSVINLMSSKMLQINA,CDK5 with p25,"phosphotransferase activity, radiometric",peptide,"concentration not given, 10% DMSO, added: histone substrate",reference: p5-WT peptide,activity change,28%
BzATP,"P2X purinoceptor 7 (P2rx7, Rattus norvegicus, UniProt Q64663, Q143A)","ion current, agonist, two-electrode voltage clamp",Xenopus oocytes,3.7 µM,,normalized current,0.32 and 0.175 and 0.157
KEAFWDRCLSVINLMSSKMGQINA,CDK5 with p25,"phosphotransferase activity, radiometric",peptide,"concentration not given, 10% DMSO, added: histone substrate",reference: p5-WT peptide,activity change,38%
Malic enzyme 2 S106K (human),,"enzyme activity, NADH absorbance",,"with fumarate 3 mM, added: L-malate varied",,Hill coefficient,1.06 ± 0.02
KEAFWDRCLYVINLMSSKMLQINA,CDK5 with p25,"phosphotransferase activity, radiometric",peptide,"concentration not given, 10% DMSO, added: histone substrate",reference: p5-WT peptide,activity change,17%
11-deoxycorticosterone,human CYP11B2,"substrate, stopped-flow kinetics",,"4-state closed model, added: adrenodoxin 40-fold excess",,rate constant k2,4.68 min⁻¹

# For quick reference, copied from above:
Substance,target or system,assay,test system,setting,how to read,measurement,value
human ME2 P78D,,"enzyme activity, NADH absorbance",,"without fumarate, added: L-malate varied",,Hill coefficient,1.53 ± 0.06
Malic enzyme 2 S106K (human),,"enzyme activity, NADH absorbance",,"with fumarate 3 mM, added: L-malate varied",,Hill coefficient,1.06 ± 0.02
